Results pooled from the literature.
Each numbered part is a random draw from the data of one study; scales do not carry over between parts. ± marks the error that the study gave.
UniProt Q96L34, sequence (whole entry, looked up): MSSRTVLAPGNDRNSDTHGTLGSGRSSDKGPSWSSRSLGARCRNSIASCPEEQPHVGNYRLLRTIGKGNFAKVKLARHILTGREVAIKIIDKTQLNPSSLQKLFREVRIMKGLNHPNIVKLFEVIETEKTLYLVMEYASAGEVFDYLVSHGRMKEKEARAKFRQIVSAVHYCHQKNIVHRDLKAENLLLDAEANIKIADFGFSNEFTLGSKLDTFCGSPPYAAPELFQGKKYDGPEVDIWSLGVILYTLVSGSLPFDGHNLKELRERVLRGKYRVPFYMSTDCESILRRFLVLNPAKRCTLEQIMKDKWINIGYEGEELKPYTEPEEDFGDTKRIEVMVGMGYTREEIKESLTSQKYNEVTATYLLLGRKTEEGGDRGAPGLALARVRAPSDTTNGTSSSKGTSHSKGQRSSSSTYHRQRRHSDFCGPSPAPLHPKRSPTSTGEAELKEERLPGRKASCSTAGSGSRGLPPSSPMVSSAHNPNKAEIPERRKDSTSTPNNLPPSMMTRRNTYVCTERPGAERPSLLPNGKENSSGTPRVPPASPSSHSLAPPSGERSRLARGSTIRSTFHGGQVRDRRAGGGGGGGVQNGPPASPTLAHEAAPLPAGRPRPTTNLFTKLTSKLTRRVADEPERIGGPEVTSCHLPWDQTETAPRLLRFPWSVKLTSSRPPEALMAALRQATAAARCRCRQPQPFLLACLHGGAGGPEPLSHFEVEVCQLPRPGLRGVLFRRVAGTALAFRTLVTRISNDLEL
UniProt Q6P2M8, sequence (whole entry, looked up): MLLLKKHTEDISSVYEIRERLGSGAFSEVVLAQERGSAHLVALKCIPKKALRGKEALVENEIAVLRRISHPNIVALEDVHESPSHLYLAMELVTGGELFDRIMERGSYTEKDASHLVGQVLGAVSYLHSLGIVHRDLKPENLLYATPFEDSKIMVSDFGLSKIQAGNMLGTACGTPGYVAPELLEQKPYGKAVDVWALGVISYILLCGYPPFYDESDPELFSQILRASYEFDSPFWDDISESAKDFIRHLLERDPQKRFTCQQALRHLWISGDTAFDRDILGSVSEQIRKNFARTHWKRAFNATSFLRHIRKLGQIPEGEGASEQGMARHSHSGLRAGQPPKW
UniProt P28482, sequence (whole entry, looked up): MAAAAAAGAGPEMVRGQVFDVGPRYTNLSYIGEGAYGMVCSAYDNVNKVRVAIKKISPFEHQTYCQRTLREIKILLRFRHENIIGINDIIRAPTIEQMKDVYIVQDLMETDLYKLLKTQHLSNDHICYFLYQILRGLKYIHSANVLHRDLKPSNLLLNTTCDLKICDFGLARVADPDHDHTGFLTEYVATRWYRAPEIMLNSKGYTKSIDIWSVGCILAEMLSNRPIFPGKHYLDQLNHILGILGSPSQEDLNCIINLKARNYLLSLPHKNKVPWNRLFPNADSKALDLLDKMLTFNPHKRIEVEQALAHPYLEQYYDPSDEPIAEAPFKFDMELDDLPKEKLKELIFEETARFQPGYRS
UniProt Q8N568, sequence (whole entry, looked up): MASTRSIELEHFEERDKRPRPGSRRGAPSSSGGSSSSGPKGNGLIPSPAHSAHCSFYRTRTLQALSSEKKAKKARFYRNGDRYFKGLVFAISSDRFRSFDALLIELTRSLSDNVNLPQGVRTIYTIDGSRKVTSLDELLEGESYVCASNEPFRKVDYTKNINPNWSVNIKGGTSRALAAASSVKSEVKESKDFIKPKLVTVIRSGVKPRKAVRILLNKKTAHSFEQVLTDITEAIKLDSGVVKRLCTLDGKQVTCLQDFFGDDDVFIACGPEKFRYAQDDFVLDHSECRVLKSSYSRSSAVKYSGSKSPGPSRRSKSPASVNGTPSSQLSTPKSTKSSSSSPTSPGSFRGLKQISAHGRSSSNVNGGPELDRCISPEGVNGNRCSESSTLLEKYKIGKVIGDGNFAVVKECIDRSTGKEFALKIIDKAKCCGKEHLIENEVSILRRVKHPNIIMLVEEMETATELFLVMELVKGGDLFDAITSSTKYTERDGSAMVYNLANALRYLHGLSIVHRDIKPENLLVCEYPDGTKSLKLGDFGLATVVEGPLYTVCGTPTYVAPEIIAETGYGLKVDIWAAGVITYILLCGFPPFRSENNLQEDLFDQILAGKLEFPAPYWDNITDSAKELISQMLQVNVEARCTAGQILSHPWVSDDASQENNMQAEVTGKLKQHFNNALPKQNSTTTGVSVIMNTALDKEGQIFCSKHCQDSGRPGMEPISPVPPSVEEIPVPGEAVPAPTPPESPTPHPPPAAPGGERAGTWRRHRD
UniProt P49761, sequence (whole entry, looked up): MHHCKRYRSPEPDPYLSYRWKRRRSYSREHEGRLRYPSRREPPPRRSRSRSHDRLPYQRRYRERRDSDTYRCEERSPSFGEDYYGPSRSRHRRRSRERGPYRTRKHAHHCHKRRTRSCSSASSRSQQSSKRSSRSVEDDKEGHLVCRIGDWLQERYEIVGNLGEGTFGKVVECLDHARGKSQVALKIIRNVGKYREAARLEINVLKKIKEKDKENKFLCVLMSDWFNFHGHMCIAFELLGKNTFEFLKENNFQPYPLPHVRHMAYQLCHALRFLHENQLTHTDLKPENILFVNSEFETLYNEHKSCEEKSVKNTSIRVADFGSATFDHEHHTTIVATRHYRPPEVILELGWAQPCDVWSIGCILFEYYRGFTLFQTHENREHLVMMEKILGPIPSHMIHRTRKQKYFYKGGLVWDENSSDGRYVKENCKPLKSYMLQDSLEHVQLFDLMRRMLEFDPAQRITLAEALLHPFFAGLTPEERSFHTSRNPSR
UniProt Q13237, sequence (whole entry, looked up): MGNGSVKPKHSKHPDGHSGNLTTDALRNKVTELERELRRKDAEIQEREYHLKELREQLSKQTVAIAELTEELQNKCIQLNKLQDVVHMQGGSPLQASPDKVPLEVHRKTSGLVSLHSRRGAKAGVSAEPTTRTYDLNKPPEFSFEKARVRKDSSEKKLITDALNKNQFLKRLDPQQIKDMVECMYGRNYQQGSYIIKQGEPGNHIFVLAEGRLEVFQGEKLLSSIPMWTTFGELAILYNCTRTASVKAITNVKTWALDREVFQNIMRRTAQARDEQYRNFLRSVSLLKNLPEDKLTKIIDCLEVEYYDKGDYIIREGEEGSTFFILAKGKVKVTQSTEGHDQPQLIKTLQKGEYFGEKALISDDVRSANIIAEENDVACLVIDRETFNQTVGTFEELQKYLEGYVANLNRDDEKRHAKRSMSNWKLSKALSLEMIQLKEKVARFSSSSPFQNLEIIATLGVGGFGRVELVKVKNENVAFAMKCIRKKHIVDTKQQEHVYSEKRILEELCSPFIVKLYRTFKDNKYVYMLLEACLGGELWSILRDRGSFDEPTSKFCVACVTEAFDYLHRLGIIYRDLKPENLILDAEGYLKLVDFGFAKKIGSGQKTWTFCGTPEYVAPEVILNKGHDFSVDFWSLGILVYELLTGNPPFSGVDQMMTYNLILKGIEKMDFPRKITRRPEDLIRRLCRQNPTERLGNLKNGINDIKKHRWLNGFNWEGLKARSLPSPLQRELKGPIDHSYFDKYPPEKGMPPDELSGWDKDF
UniProt Q9UPZ9, sequence (whole entry, looked up): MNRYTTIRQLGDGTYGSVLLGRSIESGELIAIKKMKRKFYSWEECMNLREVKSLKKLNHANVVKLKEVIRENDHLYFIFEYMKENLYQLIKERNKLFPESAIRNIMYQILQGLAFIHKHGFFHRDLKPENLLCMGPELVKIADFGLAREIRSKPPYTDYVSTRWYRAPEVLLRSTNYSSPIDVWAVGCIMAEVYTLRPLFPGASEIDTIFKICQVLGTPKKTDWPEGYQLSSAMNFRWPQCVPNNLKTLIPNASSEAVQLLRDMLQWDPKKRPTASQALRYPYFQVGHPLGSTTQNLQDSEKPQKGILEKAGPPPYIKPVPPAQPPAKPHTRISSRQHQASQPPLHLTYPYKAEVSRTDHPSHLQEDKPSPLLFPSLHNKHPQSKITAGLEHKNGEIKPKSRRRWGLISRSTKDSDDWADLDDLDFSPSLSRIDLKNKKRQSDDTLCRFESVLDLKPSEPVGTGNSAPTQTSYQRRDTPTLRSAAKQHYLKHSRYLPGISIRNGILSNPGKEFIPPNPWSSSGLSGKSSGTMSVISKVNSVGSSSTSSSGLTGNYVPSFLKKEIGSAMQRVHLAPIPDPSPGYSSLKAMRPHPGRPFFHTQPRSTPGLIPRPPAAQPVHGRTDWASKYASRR
UniProt Q15759, sequence (whole entry, looked up): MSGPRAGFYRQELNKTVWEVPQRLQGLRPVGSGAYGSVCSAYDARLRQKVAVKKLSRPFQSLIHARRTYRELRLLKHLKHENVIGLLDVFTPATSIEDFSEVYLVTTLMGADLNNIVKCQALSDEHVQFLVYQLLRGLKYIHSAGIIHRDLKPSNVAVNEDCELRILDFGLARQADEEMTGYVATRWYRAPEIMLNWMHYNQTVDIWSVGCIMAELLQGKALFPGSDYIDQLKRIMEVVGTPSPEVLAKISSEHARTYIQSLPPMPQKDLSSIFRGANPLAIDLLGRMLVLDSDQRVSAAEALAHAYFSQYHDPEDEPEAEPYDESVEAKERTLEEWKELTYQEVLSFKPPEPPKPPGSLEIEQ
UniProt P50750, sequence (whole entry, looked up): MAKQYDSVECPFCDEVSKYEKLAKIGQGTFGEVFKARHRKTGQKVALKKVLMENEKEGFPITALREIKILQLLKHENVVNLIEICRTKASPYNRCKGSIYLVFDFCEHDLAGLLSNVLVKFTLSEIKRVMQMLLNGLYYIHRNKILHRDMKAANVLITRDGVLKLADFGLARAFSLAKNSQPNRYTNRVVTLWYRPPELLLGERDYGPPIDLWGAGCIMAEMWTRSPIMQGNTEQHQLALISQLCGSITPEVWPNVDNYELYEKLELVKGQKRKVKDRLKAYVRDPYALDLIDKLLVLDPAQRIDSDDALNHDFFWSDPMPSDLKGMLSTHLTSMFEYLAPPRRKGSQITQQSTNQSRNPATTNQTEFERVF

Series 1 — cell line: A-375; tested at: 100 µM; time: 36 h
| SMILES | viability |
| --- | --- |
| CCN(CC)CCNC(=O)c1cc(S(C)(=O)=O)ccc1OC | 76.2% |
| O=C1c2c(O)cccc2Cc2cccc(O)c21 | 92.6% |
| Cc1cc(/C=C/C#N)cc(C)c1Nc1ccnc(Nc2ccc(C#N)cc2)n1 | 19.9% |
| CCCCCCCCCCCCCCCCOP(=O)([O-])OCC[N+](C)(C)C | 20.8% |
| CC(C)[C@H](N)C(=O)OCC(CO)OCn1cnc2c(=O)nc(N)[nH]c21 (stereo partly shown) | 87.3% |
| CNC1CCCN(c2c(F)cc3c(=O)c(C(=O)O)cn(C4CC4)c3c2OC)C1 (stereo not shown) | 111% |
| N#CC(c1ccc(Cl)cc1)c1c(Cl)cc(-n2ncc(=O)[nH]c2=O)cc1Cl (stereo not shown) | 101% |

Series 2 — method: competition with immobilised ligand; tested at: 1 µM
Structure (SMILES): CCc1ccccc1C(=O)Nc1n[nH]c2c(C)c(F)c(C3C(C#N)=C(C)N(C)C(C)=C3C#N)cc12
| target | assay | remaining binding [%] |
| --- | --- | --- |
| KIT (Homo sapiens, UniProt P10721, A829P) | cell-free assay | 100 |
| TNK2 (Homo sapiens, UniProt Q07912) | cell-free assay | 81 |
| CIT (Homo sapiens, UniProt O14578) | cell-free assay | 90 |
| PIKFYVE (Homo sapiens, UniProt Q9Y2I7) | cell-free assay | 100 |
| CILK1 (Homo sapiens, UniProt Q9UPZ9) | binding | 100 |
| TNIK (Homo sapiens, UniProt Q9UKE5) | cell-free assay | 78 |

Series 3
Structure (SMILES): COc1cc(C(=O)N2CCC(N3CCN(C)CC3)CC2)ccc1Nc1ncc2c(n1)N(C)c1ccccc1C(=O)N2C
| target | assay | setting | remaining activity [%] |
| --- | --- | --- | --- |
| BRSK2 | kinase activity | 1 µM | 89 ± 7 |
| MEKK1 | kinase activity | 1 µM | 87 ± 2 |
| IGF-1R | kinase activity | 1 µM | 107 ± 1 |
| PAK5 | kinase activity | 10 µM | 89 ± 1 |
| PLK1 (Homo sapiens, UniProt P53350) | – | 1 µM | 73 ± 5 |
| MNK1 | kinase activity | 1 µM | 86 ± 4 |
| PDK1 | kinase activity | 1 µM | 68 ± 2 |

Series 4 — effect on: enzyme activity; action: inhibitor; tested at: 0.5 µM; relative to: control
SMILES: O=C1Cc2c([nH]c3ccc([N+](=O)[O-])cc23)-c2ccccc2N1
| target | remaining activity |
| --- | --- |
| MAPK1 (Homo sapiens, UniProt P28482) | 106% |
| Cyclin-dependent kinase 9, with cyclin K (CDK9, Homo sapiens, UniProt P50750) | 24.2% |
| ROCK1 (Homo sapiens, UniProt Q13464) | 91.2% |
| MAPK14 (Homo sapiens, UniProt Q16539) | 92.1% |
| CLK4 (Homo sapiens, UniProt Q9HAZ1) | 86.4% |
| MET (Homo sapiens, UniProt P08581) | 117% |
| MARK4 (Homo sapiens, UniProt Q96L34) | 55.4% |
| PNCK (Homo sapiens, UniProt Q6P2M8) | 107% |
| CLK3 (Homo sapiens, UniProt P49761) | 106% |
| PRKG2 (Homo sapiens, UniProt Q13237) | 97.6% |
| DCLK2 (Homo sapiens, UniProt Q8N568) | 105% |
| CDC42BPB (Homo sapiens, UniProt Q9Y5S2) | 83.3% |
| MAPK11 (Homo sapiens, UniProt Q15759) | 102% |
| AKT2 (Homo sapiens, UniProt P31751) | 101% |

Excerpt of the above (series 2):
| target | assay | remaining binding [%] |
| --- | --- | --- |
| KIT (Homo sapiens, UniProt P10721, A829P) | cell-free assay | 100 |
| TNK2 (Homo sapiens, UniProt Q07912) | cell-free assay | 81 |
| PIKFYVE (Homo sapiens, UniProt Q9Y2I7) | cell-free assay | 100 |
| CIT (Homo sapiens, UniProt O14578) | cell-free assay | 90 |
| TNIK (Homo sapiens, UniProt Q9UKE5) | cell-free assay | 78 |
| CILK1 (Homo sapiens, UniProt Q9UPZ9) | binding | 100 |
